{"data": "Measured values from different studies", "note": "Each numbered part is a random draw from the data of one study; scales do not carry over between parts."}
{"data": "Sample 1", "target": "Interferon regulatory factor 7, full length, phosphomimetic (IRF7, Homo sapiens, UniProt Q92985, residues 1-503, S471D/S472D/S475D/S476D/S477D/S483D/S484D/S487D)", "technique": "protein-binding microarray", "molecule type": "double-stranded DNA, one strand shown", "medium": "in vitro", "tested at": "2200 nM top", "notes": "60-bp whole probe", "added": "salmon DNA 0.4 mg/ml", "reference": "random background probes", "direction": "higher = stronger binding", "UniProt Q92985, sequence (whole entry, unmodified, looked up)": "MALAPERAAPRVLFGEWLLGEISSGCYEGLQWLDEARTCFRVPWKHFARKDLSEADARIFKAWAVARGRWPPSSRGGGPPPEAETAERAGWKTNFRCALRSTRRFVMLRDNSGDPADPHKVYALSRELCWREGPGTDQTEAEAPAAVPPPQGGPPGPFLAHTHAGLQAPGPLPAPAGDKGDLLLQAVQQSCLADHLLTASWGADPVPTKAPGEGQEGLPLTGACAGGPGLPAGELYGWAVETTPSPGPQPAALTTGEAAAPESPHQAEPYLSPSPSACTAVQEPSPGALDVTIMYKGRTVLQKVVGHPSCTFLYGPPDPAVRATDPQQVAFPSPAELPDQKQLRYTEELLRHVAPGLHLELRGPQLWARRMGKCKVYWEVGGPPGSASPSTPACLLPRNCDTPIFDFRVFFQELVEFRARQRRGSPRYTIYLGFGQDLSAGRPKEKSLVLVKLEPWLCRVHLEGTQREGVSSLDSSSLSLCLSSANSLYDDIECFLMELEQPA"}
{"Strand": "GCCTAGCACGACGATTGCAGACTGGAGACGTGCTAGGTCTTGATTCGCTTGACGCTGCTG", "fitted relative affinity": "-0.0147 z-score"}
{"Strand": "GCCTAGCACGACGATTTTAGTATCGAGACGTGCTAGGTCTTGATTCGCTTGACGCTGCTG", "fitted relative affinity": "0.533 z-score"}
{"Strand": "GCCTAGCACTCATGAATGCCCTCTAACACTGTGCTAGTCTTGATTCGCTTGACGCTGCTG", "fitted relative affinity": "0.598 z-score"}
{"Strand": "GCCTAGCACCTGCATCTGATTTCTCAAACAGTGCTAGTCTTGATTCGCTTGACGCTGCTG", "fitted relative affinity": "0.69 z-score"}
{"data": "Sample 2", "target": "Histone acetyltransferase KAT6A, both winged helices, GST fusion (KAT6A, Homo sapiens, UniProt Q92794, residues 1-181)", "technique": "protein binding microarray", "molecule type": "double-stranded DNA, one strand shown", "medium": "in vitro", "tested at": "not given", "notes": "8-mer, flanks averaged, mean of 2 arrays, mostly near background", "reference": "not given", "direction": "higher = stronger binding", "Construct (chain)": "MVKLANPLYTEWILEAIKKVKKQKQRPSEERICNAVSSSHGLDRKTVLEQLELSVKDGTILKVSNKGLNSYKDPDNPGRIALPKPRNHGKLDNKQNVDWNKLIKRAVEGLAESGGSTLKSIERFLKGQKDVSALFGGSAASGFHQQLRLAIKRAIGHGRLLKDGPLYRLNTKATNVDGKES"}
{"Strand": "ACCTAATC", "E-score": -0.127}
{"Strand": "GATACAAA", "E-score": 0.0306}
{"Strand": "CACAACTC", "E-score": -0.156}
{"Strand": "AGCGATTC", "E-score": 0.187}
{"data": "Sample 3", "target": "FOXO3, forkhead domain (mouse, UniProt Q9WVH4, residues 31-263)", "technique": "protein-binding microarray", "molecule type": "hairpin DNA", "medium": "in vitro", "tested at": "not given", "notes": "whole hairpin DNA, median over replicate spots", "reference": "not given", "direction": "higher = stronger binding", "UniProt Q9WVH4, sequence (31-263, looked up)": "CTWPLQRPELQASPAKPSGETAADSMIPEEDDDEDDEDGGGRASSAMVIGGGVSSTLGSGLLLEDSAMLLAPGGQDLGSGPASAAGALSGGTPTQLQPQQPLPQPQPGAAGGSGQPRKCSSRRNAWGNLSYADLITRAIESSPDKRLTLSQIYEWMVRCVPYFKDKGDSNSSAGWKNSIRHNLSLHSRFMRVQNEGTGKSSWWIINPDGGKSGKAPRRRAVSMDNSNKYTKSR"}
{"Strand": "GAGGCCATGTAAACAAGGCCTCCTGGCCTTGTTTACATGGCCTCACACTC (5mC at 28)", "median fluorescence": "4960 a.u."}
{"Strand": "GAGGCCCGGCAAACAACGCCTCCTGGCGTTGTTTGCCGGGCCTCACACTC (5mC at 7)", "median fluorescence": "5400 a.u."}
{"Strand": "GAGGCCATGTTACCAACGCCTCCTGGCGTTGGTAACATGGCCTCACACTC", "median fluorescence": "4090 a.u."}
{"Strand": "GAGGCCATGTAAGCAACGCCTCCTGGCGTTGCTTACATGGCCTCACACTC (5mC at 32)", "median fluorescence": "6020 a.u."}
{"Strand": "GAGGCCATGCAAACAACGCCTCCTGGCGTTGTTTGCATGGCCTCACACTC (5mC at 36)", "median fluorescence": "4870 a.u."}
{"data": "Further values, each from its own experiment"}
{"Substance": "PhoQ, residues 284 288 289 292 302 303 TLASMF", "target": "PhoP, residues 12 14 15 18 19 HEGLL (Escherichia coli, UniProt P23836)", "test": "Sort-seq, refers to: YFP reporter", "system": "E. coli", "conditions": "PhoQ-PhoP variant library, added: 10 µM Mg2+", "how to read": "reference: high Mg2+ state, higher = stronger signaling", "endpoint": "fold induction", "value": 12.8}
